Measurements collected from several papers.
Lines come from different studies, so protocols differ. Values after ≈ are worked out from the molar mass of the structure shown.

The thermodynamic solubility of CCC/C(=C\C1=C(F)C(=O)c2ccccc2C1=O)C(=O)N(CC)CC is reported as 13 µg/mL (aqueous buffer; pH 6.8).
CCN(CC)CC#CCNc1ccnc2cc(Cl)ccc12 gave a thermodynamic solubility of 1210 µM (PBS; pH 7.4).
The kinetic solubility of C[C@@H]1CC[C@@H]([C@](O)(COCc2ccccc2)Cn2cnc3ccccc32)[C@H](OCc2ccccc2)C1 is reported as 1.6 µM (≈ 0.775 µg/mL) (PBS; 2 h, pH 7.4).
Cc1ccc(NCC(=O)Nc2ccon2)cc1S(=O)(=O)N1CCOCC1 gave a kinetic solubility of > 250 µM (water).
With C[C@@H]1CC[C@@H]([C@@](O)(CNCc2ccc(F)cc2)COCc2ccc(F)cc2)[C@H](OCc2ccc(F)cc2)C1 the kinetic solubility was 197 µM (≈ 104 µg/mL) (PBS; 2 h, pH 7.4).
The thermodynamic solubility of CCC/C(=C\C1=C(OC)C(=O)c2ccccc2C1=O)C(=O)NOC is reported as 603 µg/mL (FeSSIF; 24 h, 37 °C).
Cc1ccc(NCC(=O)Nc2ccc(F)c(Cl)c2)cc1S(=O)(=O)N1CC2CCC(C1)O2 has a kinetic solubility of 79 µM (≈ 37 µg/mL) (water).
C[C@@H]1CC[C@@H]([C@@](C)(O)Cn2ccnc2)[C@H](OCc2ccccc2)C1 gave a kinetic solubility of 3.7 µM (≈ 1.22 µg/mL) (PBS; 2 h, pH 7.4).
Cc1ccc(NCC(=O)N(C)c2ccc(F)c(Cl)c2)cc1S(=O)(=O)N1CCOCC1 gave a kinetic solubility of 180 µM (≈ 82.1 µg/mL) (water).
COc1ccc(CNC[C@@](O)(COCc2ccc(F)cc2)[C@@H]2CC[C@@H](C)C[C@H]2OCc2ccc(F)cc2)cc1 gave a kinetic solubility of 172 µM (≈ 92.8 µg/mL) (PBS; 2 h, pH 7.4).
The kinetic solubility of Cc1ccc(NC(C)(C)C(=O)Nc2ccc(F)c(Cl)c2)cc1S(=O)(=O)N1CC2(COC2)C1 is reported as 167 µM (≈ 80.5 µg/mL) (water).
CN1CC[C@H](c2c(O)cc(O)c3c(=O)cc(/C=C/c4c(Cl)cccc4Cl)oc23)[C@H](O)C1.O=C(O)CNC(=O)c1ccccc1 gave a thermodynamic solubility of 360 µg/mL (water).
With CCC/C(=C\C1=C(C(F)(F)F)C(=O)c2ccccc2C1=O)C(=O)N(CC)CC the thermodynamic solubility was 4 µg/mL (FaSSIF; 24 h, 37 °C).
With COc1ccccc1CNC[C@@](O)(COCc1ccccc1)[C@@H]1CC[C@@H](C)C[C@H]1OCc1ccccc1 the kinetic solubility was 1.6 µM (≈ 0.806 µg/mL) (PBS; 2 h, pH 7.4).
The kinetic solubility of Cc1ccc(NCC(=O)Nc2ccc(F)cc2)cc1S(=O)(=O)N1CCOCC1 is reported as > 250 µM (water).

Repeated from above:
Cc1ccc(NCC(=O)N(C)c2ccc(F)c(Cl)c2)cc1S(=O)(=O)N1CCOCC1 gave a kinetic solubility of 180 µM (≈ 82.1 µg/mL) (water).
COc1ccc(CNC[C@@](O)(COCc2ccc(F)cc2)[C@@H]2CC[C@@H](C)C[C@H]2OCc2ccc(F)cc2)cc1 gave a kinetic solubility of 172 µM (≈ 92.8 µg/mL) (PBS; 2 h, pH 7.4).
